Experimental data collected from several papers.
Lines come from different studies, so protocols differ. “And” joins repeats or separate records; there may be more than shown. ± marks the error that the study gave.
GBA2: Beta-glucosidase (GBA2, Homo sapiens, UniProt Q9HCG7)
Sequence of UniProt Q9HCG7 (whole entry, looked up): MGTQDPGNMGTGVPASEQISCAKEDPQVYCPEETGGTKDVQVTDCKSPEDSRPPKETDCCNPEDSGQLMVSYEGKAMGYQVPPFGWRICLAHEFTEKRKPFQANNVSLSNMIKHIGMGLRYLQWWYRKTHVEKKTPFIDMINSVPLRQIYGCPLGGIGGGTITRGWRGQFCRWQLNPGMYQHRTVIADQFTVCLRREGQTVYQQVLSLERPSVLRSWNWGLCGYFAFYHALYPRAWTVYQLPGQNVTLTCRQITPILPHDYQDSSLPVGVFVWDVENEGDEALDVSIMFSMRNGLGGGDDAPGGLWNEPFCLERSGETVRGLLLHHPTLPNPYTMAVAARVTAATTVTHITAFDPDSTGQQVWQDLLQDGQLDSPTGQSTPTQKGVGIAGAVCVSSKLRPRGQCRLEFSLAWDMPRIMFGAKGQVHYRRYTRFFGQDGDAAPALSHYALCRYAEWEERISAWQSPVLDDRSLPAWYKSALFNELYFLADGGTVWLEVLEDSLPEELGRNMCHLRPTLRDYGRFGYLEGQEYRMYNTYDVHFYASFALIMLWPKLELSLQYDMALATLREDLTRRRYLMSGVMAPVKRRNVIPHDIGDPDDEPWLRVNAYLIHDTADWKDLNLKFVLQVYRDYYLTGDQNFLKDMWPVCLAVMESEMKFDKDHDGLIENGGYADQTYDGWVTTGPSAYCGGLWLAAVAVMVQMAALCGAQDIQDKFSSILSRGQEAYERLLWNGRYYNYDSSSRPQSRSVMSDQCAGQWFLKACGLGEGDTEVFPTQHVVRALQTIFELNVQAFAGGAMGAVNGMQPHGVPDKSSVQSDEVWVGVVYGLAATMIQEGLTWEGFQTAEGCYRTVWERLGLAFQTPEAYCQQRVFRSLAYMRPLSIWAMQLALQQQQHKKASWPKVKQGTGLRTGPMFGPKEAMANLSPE

The bioavailability of C/C(N)=N/C(=N\S(=O)(=O)c1ccc(C(F)(F)F)cc1)N1C[C@H](c2ccccc2)C(c2ccc(Cl)cc2)=N1 is reported as 28% (beagle dog, plasma; oral, 24 mg/kg).
For C=CC(=O)Nc1cc(Nc2nccc(-c3c[nH]c4ccccc34)n2)c(OC)cc1N(C)CCN(C)C, the recovery was 96.8% (storage stability; human plasma; 5 h, on ice, low QC level).
The selectivity ratio of OC[C@H]1N[C@H](CCCCOCC23CC4CC(CC(C4)C2)C3)[C@H](O)[C@@H](O)[C@@H]1O is reported as 735 (GBA2; inhibitor, 4MU-β-D-glucopyranoside; HEK293T homogenates overexpressing GBA2; baseline: GCS IC50 over GBA2 IC50).
The plasma concentration of C=C[C@]1(C)C[C@@H](OC(=O)CSc2ccc(NC(=O)c3ccco3)cc2)[C@]2(C)[C@H](C)CC[C@]3(CCC(=O)[C@H]32)[C@@H](C)[C@@H]1O is reported as 0.176 µg/mL and 0.151 µg/mL and 0.172 µg/mL and 0.128 µg/mL and 0.129 µg/mL and 0.159 µg/mL and 0.17 µg/mL and 0.14 µg/mL (Mycoplasma gallisepticum-infected chickens, plasma; intramuscular, 5 mg/kg, 3 h).
CC(C)[C@H](NC(=O)[C@H](Cc1c[nH]c2ccccc12)NC(=O)[C@H](CCCNC(=N)N)NC(=O)[C@H](CCCNC(=N)N)NC(=O)[C@@H](NC(=O)[C@@H](NC(=O)[C@H](CCCNC(=N)N)NC(=O)[C@@H](NC(=O)[C@@H](NC(=O)[C@H](CCCNC(=N)N)NC(=O)[C@H](CCCNC(=N)N)NC(=O)[C@@H](NC(=O)[C@H](Cc1c[nH]c2ccccc12)NC(=O)[C@H](CCCNC(=N)N)NC(=O)[C@H](CCCNC(=N)N)NC(=O)[C@@H](NC(=O)[C@H](CCCNC(=N)N)NC(=O)[C@H](CCCNC(=N)N)NC(=O)[C@@H](NC(=O)[C@H](Cc1c[nH]c2ccccc12)NC(=O)[C@H](CCCNC(=N)N)NC(=O)[C@@H](N)CCCNC(=N)N)C(C)C)C(C)C)C(C)C)C(C)C)C(C)C)C(C)C)C(C)C)C(=O)N[C@@H](CCCNC(=N)N)C(=O)N[C@@H](CCCNC(=N)N)C(=O)O gave a glucose of 78 mg/dL (CD1 mouse, urine; intravenous, 15 mg/kg, 6 h, [14C]-labelled compound).
For C=CC(=O)Nc1cc(Nc2nccc(-c3cn(C)c4ccccc34)n2)c(OC)cc1N(C)CCNC, the remaining compound was 103% (human, dried blood spots; 270 ng/mL, 2 h, room temperature, high QC level).
Cc1nn(-c2nc3c(F)cc(F)cc3s2)c(O)c1C(c1ccc(C(F)(F)F)cc1)c1c(C)nn(-c2nc3c(F)cc(F)cc3s2)c1O has an AUC(all) of 87800 ng·h/mL and 46800 ng·h/mL and 36000 ng·h/mL (ICR mouse, plasma; intravenous, 5 mg/kg).
With CN1CCC[C@]1(C)/C=C/S(=O)(=O)NC(=O)Nc1c2c(cc3c1C(O)CC3)CCC2 (stereo partly shown) the AUC(0-t) was 78700 ng·h/mL (human, plasma; oral, 12.5 mg twice daily of parent drug, day 14, metabolite of dosed drug).
CCCCN1C(=O)c2cccc3c(NCCCCCCCCN4CCOCC4)ccc(c23)C1=O — result for “molar extinction coefficient”: 11600 M⁻¹ cm⁻¹ (DMSO).
For COc1cccc(OC)c1-c1cc(C(=O)NC2(C(=O)O)C3CC4CC(C3)CC2C4)nn1-c1ccc(C(=O)N(C)CCCN(C)CCCN(C)C(=O)[C@H](CCCCNC(=O)[C@H](CC(C)C)NC(=O)C2OC2C(=O)O)NC(=O)CN2CCN(CC(=O)[O-])CCN(CC(=O)[O-])CCN(CC(=O)[O-])CC2)cc1C(C)C.[177Lu+3] (mixture of isomers), the tumour-to-brain ratio was 137 (mouse, HT-29 xenograft; 24 h post injection, biodistribution; baseline: tumour over brain uptake).
For Cn1c2cc([S+](C)[O-])sc2c2cnn(Cc3cccc(N)c3)c(=O)c21 (stereo not shown), the bioavailability was greater than 100% (male BALB/c mouse, plasma; intraperitoneal, 10 mg/kg, single dose).
The chemical degradation of CC[C@H](C)[C@@H](C(=O)N[C@@H](CC(C)C)C(=O)N[C@@H](CO)C(=O)N[C@@H](CO)C(=O)N[C@H](C(=O)N[C@@H](CCC(=O)O)C(=O)N[C@H](C(=O)NCC(=O)N[C@@H](CO)C(=O)N[C@@H](CC(N)=O)C(=O)N[C@H](C(=O)N1C[C@H](O)C[C@H]1C(N)=O)[C@@H](C)O)C(C)C)[C@@H](C)O)N(C)C(=O)[C@H](C)NC(=O)CN(C)C(=O)[C@H](Cc1ccccc1)NC(=O)[C@H](CO)NC(=O)[C@H](CO)NC(=O)[C@H](CCCNC(=N)N)NC(=O)[C@H](CCC(N)=O)NC(=O)[C@H](CC(C)C)NC(=O)[C@H](Cc1ccccc1)NC(=O)[C@H](CCCC(=O)O)NC(=O)[C@H](C)NC(=O)[C@H](CC(C)C)NC(=O)[C@H](CCCNC(=N)N)NC(=O)[C@H](CCC(=O)O)NC(=O)[C@@H](NC(=O)[C@H](C)NC(=O)[C@@H]1CCCCNC(=O)C[C@H](NC(=O)[C@H](CCCNC(=N)N)NC(=O)CC[C@H](NC(=O)CCCCCCCCCCCCCCCCCCC(=O)O)C(=O)O)C(=O)NCC(=O)N[C@@H]([C@@H](C)O)C(=O)N[C@@H](C)C(=O)N[C@@H]([C@@H](C)O)C(=O)N1)[C@@H](C)O is reported as no more than 3% (RP-UPLC; Tris buffer, mannitol, NaCl; 1 week, pH 6.6, 40 °C).
With N[C@@H](CCC(=O)N[C@H]1CSSC[C@@H](C(=O)NCC(=O)O)NC(=O)CC[C@@H](C(=O)O)NC1=O)C(=O)O the urinary concentration was 7.7 µM (LC-HRMS; human, urine; concentration not given).
Under “molar absorption coefficient”, CCN(CC)c1ccc2c(c1)O[B-]1(c3ccc(C)cc3)OC(=O)C(c3ccccc3)=N[N+]1=C2 (stereo not shown) is recorded as 59000 M⁻¹ cm⁻¹ (toluene).
Cc1ccc(OCC(=O)N(Cc2cccs2)c2ccn[nH]2)cc1 gave a remaining compound of 79.7 (human plasma; 750 ng/mL, 2 h, 37 °C, unit not given; baseline: time zero).
For CCCCN1C(=O)c2cccc3c(NCCN4CCOCC4)ccc(c23)C1=O, “molar extinction coefficient” read 7840 M⁻¹ cm⁻¹ (DMSO).
CC(C)C[C@H](NC(=O)[C@@H](CCCCNC(=O)[C@@H](Cc1ccccc1)NC(=O)CCCCCCCNC(=O)CN1CCN(CC(=O)O)CCN(CC(=O)O)CCN(CC(=O)O)CC1)NC(=O)[C@H](Cc1ccc(O)cc1)NC(=O)[C@H](CO)NC(=O)[C@H](Cc1c[nH]c2ccccc12)NC(=O)[C@H](Cc1c[nH]cn1)NC(=O)[C@@H]1CCC(=O)N1)C(=O)N[C@@H](CCCNC(=N)N)C(=O)N1CCC[C@H]1C(=O)NCC(N)=O [indium-111 labelled] gave a tissue uptake of 1.09 ± 0.19 %ID (male athymic nude mice, DU-145 prostate cancer xenograft, intestines; intravenous, 0.037 MBq, 0.5 h).
For Nc1nc(-c2ccccc2)nc2[nH]nc(Nc3ccccc3)c12, the recovery was 86.7% (plasma; time not given, plasma protein binding).
With COc1ccc(-c2ccc(COCCCCCN3C[C@H](O)[C@@H](O)[C@H](O)[C@H]3CO)cc2)cc1 the selectivity ratio was 250 (GBA2; inhibitor, 4MU-β-D-glucopyranoside; HEK293T homogenates overexpressing GBA2; baseline: GBA1 IC50 over GBA2 IC50).
CCCCN1C(=O)c2cccc3c(NCCCCCN4CCOCC4)ccc(c23)C1=O — result for “molar extinction coefficient”: 4940 M⁻¹ cm⁻¹ (toluene).
Under “log2 fold change”, COC1CN([C@H]2CC[C@H]([C@@]3(C)Oc4c(Cl)cc(C(=O)NCc5c(SC)cc(C)[nH]c5=O)c(C)c4O3)CC2)C1 is recorded as 6.68 (RNA-seq, refers to: CREB3L3; human, whole blood; dose not given, 24 h; baseline: pretreatment baseline).
With CNC(=O)C1CCCN(C(=O)C2CC3CCC2N3C(=O)[C@@H]2C[C@@H](O)CN2C(=O)NCc2cccc(Cl)c2F)C1 (mixture of isomers) the microsomal CLint was 6 µL/min/mg (metabolic stability; dog, liver microsomes).
The intact complex of CC(=O)N([O-])CCCCCNC(=O)CCC(=O)N([O-])CCCCCNC(=O)CCC(=O)N([O-])CCCCCN.[89Zr+4] is reported as 85 ± 7.1% (mouse plasma; 5 d, 37 °C).
For Cc1cc(-c2ccc(C(=O)[C@@H]3CCCC[C@H]3C(=O)Nc3cnn4c3C(=O)NCC4)cc2)[nH]n1, “recovery of radioactivity per interval” read 0.18% (human, faeces; oral, 200 mg, 240-264 h, discharged subjects excluded; baseline: dose).
CC(C)C[C@H](NC(=O)[C@H](CCCN)NC(=O)CNC(=O)[C@@H](NC(=O)[C@H](C)NC(=O)[C@@H]1CSCSC[C@H](NC(=O)CC[C@H](N)C(=O)O)C(=O)N[C@@H](CC(N)=O)C(=O)N[C@@H]([C@@H](C)O)C(=O)N[C@@H](C)C(=O)N[C@@H]([C@@H](C)O)C(=O)N1)[C@@H](C)O)C(=O)N[C@@H](C)C(=O)N[C@@H](CCC(=O)O)C(=O)N[C@@](C)(Cc1ccccc1)C(=O)N[C@@H](CC(C)C)C(=O)N[C@H](C(=O)N[C@@H](CCCNC(=N)N)C(=O)N[C@@H](CO)C(=O)N[C@@H](CO)C(=O)N[C@@H](CC(N)=O)C(=O)N(C)[C@@H](CC(N)=O)C(=O)N[C@@H](Cc1ccccc1)C(=O)NCC(=O)N1CCC[C@H]1C(=O)N[C@@H](CCCCNC(=O)CC[C@H](NC(=O)CC[C@H](NC(=O)CCCCCCCCCCCCCCCCCCC(=O)O)C(=O)O)C(=O)O)C(=O)N[C@@H](CC(C)C)C(=O)N1CCC[C@H]1C(=O)N1CCC[C@H]1C(=O)N[C@H](C(=O)N[C@@H](CCC(=O)O)C(=O)N[C@H](C(=O)NCC(=O)N[C@@H](CO)C(=O)N[C@@H](CC(N)=O)C(=O)N[C@H](C(=O)N[C@@H](Cc1ccc(O)cc1)C(N)=O)[C@@H](C)O)C(C)C)[C@@H](C)O)C(C)C gave an AUC(0-tlast) of 605 µg·h/mL (healthy human, plasma; subcutaneous, 12 mg single dose, geometric LS mean).
For CCc1cnc(NC(=O)c2cc(S(=O)(=O)N3CCOCC3)ccc2N(C)C2CCCC2)s1, the Chloride was 113 mEq/L (mouse, serum; 10 mg/kg, 3 doses).
The fractional helicity of CC[C@H](C)[C@H](NC(=O)[C@H](CC(N)=O)NC(=O)[C@@H](N)CCSC)C(=O)N[C@@H](CCSC)C(=O)N[C@@H](CC(=O)O)C(=O)N[C@@H](Cc1ccccc1)C(=O)N[C@@H](CC(N)=O)C(=O)N[C@H](C(=O)N[C@@H](CCCCN)C(=O)N[C@@H](CCCCN)C(=O)N[C@@H](CC(C)C)C(=O)N[C@@H](C)C(=O)N[C@@H](C)C(=O)N[C@@H](CC(=O)O)C(=O)N[C@@H](C)C(=O)NCC(=O)N[C@H](C(=O)N[C@@H](Cc1c[nH]c2ccccc12)C(=O)N[C@@H](CC(C)C)C(=O)N[C@@H](CO)C(=O)N[C@@H](CCCNC(=N)N)C(=O)N[C@@H](C)C(=O)N[C@H](C(=O)N[C@@H](CCC(N)=O)C(=O)N[C@@H](Cc1ccccc1)C(=O)N[C@H](C(=O)N[C@@H](CCC(=O)O)C(=O)N[C@@H](CCC(=O)O)C(=O)N[C@@H](CCCCN)C(=O)N[C@@H](CC(C)C)C(=O)NCC(=O)N[C@@H](CCC(N)=O)C(=O)N[C@@H](C)C(N)=O)[C@@H](C)O)C(C)C)[C@@H](C)O)C(C)C is reported as 10.2% (circular dichroism; phosphate buffer; pH 7.4).
For C=C(NC(=O)c1csc(-c2nc3c(cc2O)-c2nc(cs2)C(=O)NC(C(C)O)C(=O)NC(=C(C)OC)c2nc(cs2)C(=O)NC2c4nc(cs4)C(=O)NC(COC(=O)c4c5c6c(cccc6n4O)COC(=O)C(OC4CC(C)(O)C(N(C)C)C(C)O4)C2OC5)c2nc-3cs2)n1)C(N)=O (stereo not shown), the blood clearance was 87.3% (Sprague-Dawley rat, both sexes; intravenous infusion; baseline: hepatic blood flow).
